Results from different studies.
Each line is one published result; not all experiments were run side by side. Numbers after ± are the reported error.

`O=C(Cc1cccs1)NCB(O)O` — result for “MIC of ceftazidime”: 8 µg/mL (Escherichia coli DH10B expressing blaADC; agar dilution; 4 µg/mL, MIC of ceftazidime, with: ceftazidime).
For `C[C@H](CS)C(=O)N[C@H](Cc1c[nH]c2ccccc12)C(=O)O`, “MIC of meropenem” read 16 mg/L (Enterobacter aerogenes; IMP-1 producing; 10 µM, with: meropenem).
`COc1ccc2c(c1)c(CC(=O)NCCCCNC(=O)CCC(=O)OC1c3cc4c(cc3C(c3cc(OC)c(OC)c(OC)c3)C3C(=O)OCC13)OCO4)c(C)n2C(=O)c1ccc(Cl)cc1` (stereo not drawn) gave an EC50 of 62 nM (1483 HNSCC cells; cell number, WST-1; 48 h).
`CC1(C)CC[C@]2(C(=O)O)CC[C@]3(C)C(=CC[C@@H]4[C@@]5(C)CC[C@H](OC(=O)NCc6ccccc6)C(C)(C)[C@@H]5CC[C@]43C)[C@@H]2C1` has an Aβ reduction of 10 to 40% (N2a cells expressing human APP695; ELISA; conditioned medium; concentration not given).
`CC(CCN[C@H](CN[C@H](CO)CN1CCC[C@H]1CN[C@H](CN)c1ccccc1)c1ccccc1)c1ccccc1` (stereo partly drawn) has an IC50 of > 24000 nM (Escherichia coli; bacterial growth; compound alone).
For `[O-][S+](CCCCOc1ccc(C(=C2C3CC4CC(C3)CC2C4)c2ccc(O)cc2)cc1)CCCC(F)(F)C(F)(F)F` (stereo not drawn), the IC50 was 8.8 nM (MCF7 inducible ERα L536R; cell proliferation, inhibitor, MTT; 5 days).
`C[C@@]12C3=C(C(=O)c4occ(c41)[C@@H](O)[C@@H]1O[C@@H]12)[C@@H]1CCC(O)[C@@]1(C)CC3` (stereo partly drawn) has an ROS level of 1.34 (MDA-MB-231; DCFH-DA fluorescence; concentration not given, unit not given; relative to: untreated).
Under BTK phosphorylation, `C=CC(=O)Nc1cc(-n2c(=O)ccc3cnc4ccc(-c5cn[nH]c5)cc4c32)ccc1C` is recorded as “no effect” (Ramos; western blot, measured: BTK Tyr551 phosphorylation; concentration not given, 4 h).
`CCCCCCCCCCCCNC(=O)N[C@H](C(=O)N[C@H]1/C=C/CCNC(=O)/C=C/[C@H](C)NC1=O)C(C)C` has a resistance index of 2 ± 0.1 (Granta bortezomib-resistant; cell viability; relative to: EC50 resistant over parental Granta).
For `Cc1nn(C)c2c(C(C(=O)O)N3CC(OCCCCc4ccc5c(n4)NCCC5)C3)cccc12` (stereo not drawn), protein level read “decreased” (PAH PASMCs; Western blot, measured: MCM2, survivin; concentration not given, 48 h).
For `COc1ccc(C(SC[C@H](N)C(=O)NCCOCCNC(=O)c2ccc(-c3c4ccc(=N)c(S(=O)(=O)O)c-4oc4c(S(=O)(=O)O)c(N)ccc34)c(C(=O)O)c2)(c2ccccc2)c2ccccc2)cc1`, the EC50 was 5400 nM (HeLa; mitotic arrest; 4 h).
Under imipenem MIC, `O=S(=O)(NCc1[nH]nnc1CNC1CCCCC1)c1ccc(Cl)c(Cl)c1` is recorded as “no effect” (Escherichia coli BL21 parental; inhibitor; up to 150 µM, with: imipenem).
Under “potentiation of amikacin”, `NC[C@@H](NC[C@@H]1CCCN1C[C@@H](CO)NC[C@@H](NCCc1ccc(Cl)c(Cl)c1)c1ccccc1)c1ccccc1` is recorded as 0.6 fold (Escherichia coli; bacterial growth; 8 µM, fold shift of IC50, with: amikacin).
For `Cc1ccc(C(C)C)cc1Oc1nccc(-c2c(-c3ccc(C(F)(F)F)cc3)ncn2[C@H]2CC[C@@H](N)C2)n1`, mRNA level read “decreased” (TSEC; qPCR, measured: CCL2; 1.25 µM, with: LPS).
The viability of `O=C(NC1CCN(c2ncnc3[nH]cnc23)CC1)c1cccc(NS(=O)(=O)c2ccc(Cl)cc2)c1` is reported as 85.1% (A549-ACE2; 66.67 µM).
`Cc1ncsc1-c1ccc([C@H](C)NC(=O)[C@@H]2C[C@@H](O)CN2C(=O)[C@@H](NC(=O)COCCOCCOCCOCCNC(=O)c2ccc(CN3CCN(S(=O)(=O)c4ccc(NC(=S)NCc5cccnc5)cc4)CC3)cc2)C(C)(C)C)cc1` — result for NAD+ level: “decreased” (A2780; concentration not given, 24 h).
`N#Cc1ccc2cc3c(=O)[nH]c(=O)nc-3n(-c3cccc(-c4nnn[nH]4)c3)c2c1` has a GI50 of > 100 µM (DT40; cell growth, ATPlite; 72 h).
For `[O-][S+](CCCCOc1ccc(C(=C2C3CCCC2CCC3)c2ccc(O)cc2)cc1)CCCC(F)(F)C(F)(F)F` (stereo not drawn), the IC50 was 9.7 nM (MCF7 inducible ERα L536R; cell proliferation, inhibitor, MTT; 5 days).
The A50 of `CN1CC[C@]23c4c5ccc(O)c4O[C@H]2c2ncc(-c4ccc(Cl)cc4)cc2C[C@@]3(OCCCc2ccccc2)[C@H]1C5` is reported as 2.3 mg/kg (antinociception; CD-1 mouse, HIV neuropathy; sc, day 1).
The ROS level of `C[C@]12CCC3=C(C(=O)c4occ5c4[C@]3(C)[C@H]3O[C@H]3C5=O)[C@@H]1CCC2=O` is reported as 1.21 (MDA-MB-231; DCFH-DA fluorescence; concentration not given, unit not given; relative to: untreated).
With `O=C(Nc1ccccc1OS(=O)(=O)c1ccc(OC(F)(F)F)cc1)c1cnccn1` the inhibition was 70% (MCF7 transfected with human P2X7R; cell proliferation, antagonist; 10 µM, with: Bz-ATP 100 µM; relative to: control).
Under “MIC of ceftazidime”, `O=C(Cc1cccs1)NC(B(O)O)c1cccc(C(=O)O)c1` (stereo not drawn) is recorded as 4 µg/mL (Escherichia coli DH10B expressing blaADC; agar dilution; 4 µg/mL, MIC of ceftazidime, with: ceftazidime).
`CN(Cc1cn(-c2ccc(OCCCF)cc2)nn1)S(=O)(=O)c1ccc(CN2CCOCC2)cc1` has an inhibition of > 65% (MDA-MB-231; chemotaxis, antagonist; 10 nM, 22 h, with: CXCL12 200 ng/mL).
The IC50 of `CC(C)C(C(=O)N(Cc1ccc(C2CCCCC2)cc1)c1ccc(C(=O)O)cc1)N(C)S(=O)(=O)c1c(F)c(F)c(F)c(F)c1F` (stereo not drawn) is reported as 15200 ± 2000 nM (Pa03C spheroids, tumour alone; cell growth, Alamar blue; 12 days, 3D culture).

Repeated from above:
For `[O-][S+](CCCCOc1ccc(C(=C2C3CCCC2CCC3)c2ccc(O)cc2)cc1)CCCC(F)(F)C(F)(F)F` (stereo not drawn), the IC50 was 9.7 nM (MCF7 inducible ERα L536R; cell proliferation, inhibitor, MTT; 5 days).
The ROS level of `C[C@]12CCC3=C(C(=O)c4occ5c4[C@]3(C)[C@H]3O[C@H]3C5=O)[C@@H]1CCC2=O` is reported as 1.21 (MDA-MB-231; DCFH-DA fluorescence; concentration not given, unit not given; relative to: untreated).
`O=C(Cc1cccs1)NCB(O)O` — result for “MIC of ceftazidime”: 8 µg/mL (Escherichia coli DH10B expressing blaADC; agar dilution; 4 µg/mL, MIC of ceftazidime, with: ceftazidime).
